Results gathered from unrelated publications.
Compare with care: the assays were run in different laboratories. “And” joins repeats or separate records; there may be more than shown. Numbers after ± are the reported error.

With `CCCCCCNc1nc(NC2CCN(C)CC2)c2cc(OC)c(OC)cc2n1` the EC90 was 1190 nM (Toxoplasma gondii; parasite growth; HFF, bradyzoite, alkaline-induced).
With `NC(=O)NOCCCCCCCCCC[P+](c1ccccc1)(c1ccccc1)c1ccccc1` the IC50 was > 20000 nM (mouse myeloid-derived suppressor cells; suppressive neutrophil differentiation, flow cytometry).
The IC50 of `N#Cc1ccc(C[C@@H](NC(=O)c2cc3ccc(F)cc3[nH]2)C(=O)N2CCc3ccccc32)cc1` is reported as > 50000 nM (human neutrophils; calcium mobilization, desensitization; added: standard agonist).
The IC50 of `O=C(O)/C=C/c1ccccc1` is reported as > 200000 nM (T47D breast cancer; cell viability, MTT; DMEM with 10% FBS; 48 h).
`N#Cc1ccc(C[C@@H](Nc2c(Nc3ccc(Br)cc3)c(=O)c2=O)C(=O)N2CCc3ccccc32)cc1` gave an IC50 of > 50000 nM (human neutrophils; calcium mobilization, desensitization; added: standard agonist).
For `Cc1cc(Nc2ncc(Cl)c(Nc3ccccc3S(=O)(=O)C(C)C)n2)c(OC(C)C)cc1C1CCNCC1`, the IC50 was 750 ± 120 nM (Rh36 (embryonal rhabdomyosarcoma); cell growth; 3 days).
With `CCC(=O)N1CCC(COCC(=O)N2CCN(c3nc(-c4cnc(N)nc4C(F)F)nc(N4CCOC[C@@H]4C)n3)CC2)CC1` the IC50 was 35.6 nM (MDA-MB-453; western blot, refers to: phospho-PKB/Akt Ser473; 2 h).
With `Cc1ccc(-c2nnc(N[C@@H](Cc3ccc(C#N)cc3)C(=O)N3CCc4ccccc43)o2)cc1` the IC50 was > 50000 nM (human neutrophils; calcium mobilization, desensitization; added: standard agonist).
`CCCCN1C[C@H](O)[C@@H](O)[C@@H](O)[C@H]1CO` gave an IC50 of 11000 nM (sample BB patient fibroblasts; Gb3 level lowering, LC-MS/MS, refers to: Gb3 d18:1/16:0; 216 h).
`O=c1c(O[C@@H]2O[C@H](CO)[C@@H](O)[C@H](O)[C@H]2O)c(-c2ccc(O)c(O)c2)oc2cc(O)cc(O)c12` has an IC50 of 12600 nM (SV-HUC-1; cell growth, CellTiter-Glo; 72 h).
The IC50 of `C[C@@H]1CN(C(=O)c2ccc(NC(=O)c3cc(O[C@H](C)c4c(Cl)ccc(F)c4Cl)c(N)nn3)cc2)C[C@H](C)N1` is reported as 29.4 nM (Ba/F3 EML4-ALK variant 1 S1206Y; cell viability).
`N#Cc1ccc(C[C@H](NC(=O)c2cc3cc([N+](=O)[O-])ccc3[nH]2)C(=O)N2CCc3ccccc32)cc1` gave an IC50 of > 50000 nM (human neutrophils; calcium mobilization, desensitization; added: standard agonist).
The IC50 of `COc1cc(N2CCC(N3CCN(C)CC3)CC2)ccc1Nc1ncc(Cl)c(Nc2ccccc2P(C)(C)=O)n1` is reported as 88.7 nM (Ba/F3 EML4-ALK variant 1 S1206Y; cell viability).
`CCCCN1C[C@H](O)[C@@H](O)[C@H](O)[C@H]1CO` gave an IC50 of 6000 nM (Sandhoff fibroblasts; lysosomal accumulation, LysoTracker staining; 8 days).
The IC50 of `C=CC(=O)N1CCC(COCC(=O)N2CCN(c3nc(-c4cnc(N)nc4C(F)F)nc(N4CCOC[C@@H]4C)n3)CC2)CC1` is reported as 9.2 nM (MDA-MB-453; western blot, refers to: phospho-PKB/Akt Ser473; 2 h).
With `N#Cc1ccc(C[C@H](Nc2nnc(-c3ccc(Br)cc3)s2)C(=O)N2CCc3ccccc32)cc1` the IC50 was > 50000 nM (human neutrophils; calcium mobilization, desensitization; added: standard agonist).
For `C=CC(=O)N1C[C@@H](n2nc(C#Cc3c(F)cc4c(ncn4C4CC4)c3F)c(C(N)=O)c2NC)C[C@@H]1COC`, the IC50 was ~6 nM (CC-LP-1 (FGFR1, FGF20 overexpression); cell viability, MTT; 3 days).
The IC50 of `O=C(O)c1ccc(O)cc1` is reported as > 200000 nM (MDA-MB-231 breast cancer; cell viability, MTT; DMEM with 10% FBS; 48 h).
For `c1coc(-c2n[nH]cc2-c2ccnc3ccccc23)c1`, “log2 fold change” read -0.19 (VPS15 (Candida albicans); kinase binding, MIB/MS competition; Candida albicans lysate; 1 µM; relative to: DMSO).
The IC50 of `CC(C)C[C@H](NC(=O)[C@H](Cc1ccccc1)NC(=O)c1cnccn1)B(O)O` is reported as 4730 nM and 4100 nM and 6950 nM (CHP-212 parental; cell viability, SRB).
For `Oc1ccccc1-c1n[nH]cc1-c1ccnc2ccccc12`, “log2 fold change” read 0.25 (RCK2 (Candida albicans); kinase binding, MIB/MS competition; Candida albicans lysate; 10 µM; relative to: DMSO).
`C=CC(=O)c1cccnc1Nc1cc(C(F)(F)F)ccc1OCc1ccccc1` gave an IC50 of 60800 nM (HEK293A LATS1/2 double knockout; TEAD reporter gene, GTIIC luciferase; 24 h).
`O=C1CCC(N2Cc3c(C#CC4CCN(C(=O)[C@H]5CC[C@H](NC(=O)[C@H]6NC7(CCCCC7)[C@]7(C(=O)Nc8cc(Cl)ccc87)[C@H]6c6cccc(Cl)c6F)CC5)CC4)cccc3C2=O)C(=O)N1` (stereo partly shown) gave an IC50 of > 1000 nM (RS4;11/MIR2; cell growth, WST-8; 4 days).
`Cc1nn(-c2nc3c(F)cc(F)cc3s2)c(O)c1C(c1ccc(C(F)(F)F)cc1)c1c(C)nn(-c2nc3c(F)cc(F)cc3s2)c1O` has an IC50 of 2670 nM (RAW-ISG (mouse); IFN reporter gene, inhibitor, luciferase reporter; added: HT-DNA).
`N#Cc1ccc(C[C@H](Nc2nnc(-c3cccc(F)c3)s2)C(=O)N2CCc3ccccc32)cc1` gave an IC50 of > 50000 nM (human neutrophils; calcium mobilization, desensitization; added: standard agonist).
For `CN1CC(Oc2cnc(C#N)cc2-c2ccn3nc(NC(=O)C4CC4)cc3c2)C1`, the IC50 was ~5700 nM (human T cells; T cell activation, refers to: IL-2; added: anti-CD3/anti-CD28).
`Cc1c(C(=O)O)ccc2c3n(nc12)[C@@H]1[C@H](C3)N(CC2CC2)[C@@]2(C(=O)Nc3cc(Cl)ccc32)[C@H]1c1cccc(Cl)c1F` gave an IC50 of 5 to 240 nM (MDM2-amplified TP53 wild-type cell lines; cell viability; range across cell lines).
For `O=C(O)c1ccccc1Nc1cccc(C(F)(F)F)c1`, the IC50 was 258000 nM (HEK293A LATS1/2 double knockout; TEAD reporter gene, GTIIC luciferase; 24 h).
The IC50 of `CC1(C)COc2ccc(F)cc2CN2c3nc4c(cnn4cc3OC[C@H]2C(F)F)C(=O)N1` is reported as 5.48 nM (NCI-H2228 (EML4-ALK variant 3); cell viability).
The IC50 of `COc1cccc2c1C(=O)c1c(O)c3c(c(O)c1C2=O)C[C@@](O)(C(=O)CO)C[C@@H]3O[C@H]1C[C@H](N)[C@H](O)[C@H](C)O1` is reported as 46.7 nM (CHP-212 parental; cell viability, SRB; mean of 3 runs).
For `COc1ccc(F)cc1C(=O)NCc1ccc(-c2nn([C@@H](C)C(F)(F)F)c(N)c2C(N)=O)cc1`, the IC50 was > 100 nM (Rec1; refers to: EGF; 24 h).
With `CN(C)C(=O)c1cc2cnc(Nc3ccc(-c4ccc5c(=O)cc(N6CCOCC6)oc5c4)cc3)nc2n1C1CCCC1` the IC50 was 170 nM (BE(2)-C; cell viability, CellTiter-Glo; 72 h).
`CC(C)C(=O)Nc1ccc([N+](=O)[O-])c(C(F)(F)F)c1` has an IC50 of > 50000 nM (7702 normal human cells; cell growth, CCK-8; 48 h).
The IC50 of `CC1(C)CCC(CN2CCN(c3ccc(C(=O)NS(=O)(=O)c4ccc(NCC5CCOCC5)c([N+](=O)[O-])c4)c(Oc4cnc5[nH]ccc5c4)c3)CC2)=C(c2ccc(Cl)cc2)C1` is reported as 132 nM (CD56+ NK cells from healthy blood; cell viability, high-throughput flow cytometry).
For `N#Cc1ccc(C[C@@H](Nc2ncc(-c3ccc(F)cc3)o2)C(=O)N2CCc3ccccc32)cc1`, the IC50 was > 50000 nM (human neutrophils; calcium mobilization, desensitization; added: standard agonist).
`COc1cc(-c2oc3cc(O)cc(O)c3c(=O)c2O)ccc1O` gave an IC50 of > 200000 nM (SV-HUC-1; cell growth, CellTiter-Glo; 72 h).
For `Cn1cc(-c2ccc(-c3cncc(Cl)c3N3CCC4(CCNC4=O)CC3)cc2)cn1`, “log2 fold change” read 1.1 (COLO 205; gene expression, microarray, refers to: PLD1 mRNA; concentration not given, 6 h; relative to: untreated cells).
`N#Cc1ccc(C[C@@H](Nc2nnc(-c3ccc(F)cc3)s2)C(=O)N2CCc3ccccc32)cc1` has an IC50 of > 50000 nM (human neutrophils; calcium mobilization, desensitization; added: standard agonist).
With `C[C@H]1Oc2cc(cnc2N)-c2c(nn(C)c2C#N)CN(C)C(=O)c2ccc(F)cc21` the IC50 was < 1.02 nM (NCI-H2228 (EML4-ALK variant 3); cell viability).
For `CCCS(=O)(=O)Nc1ccc(F)c(C(=O)c2c[nH]c3ncc(-c4ccc(Cl)cc4)cc23)c1F`, the IC50 was > 30000 nM (primary keratinocytes; ERK phosphorylation, Western blot; 1 h).
The IC50 of `NC(=O)NOCCCCCCCCCCCCCC[P+](c1ccccc1)(c1ccccc1)c1ccccc1` is reported as 940 ± 990 nM (mouse myeloid-derived suppressor cells; suppressive neutrophil differentiation, flow cytometry).
With `Cc1cc(Nc2ncc(Cl)c(Nc3ccccc3S(=O)(=O)C(C)C)n2)c(OC(C)C)cc1C1CCNCC1` the IC50 was 267 nM (Ba/F3 EML4-ALK v1; cell viability).
With `NS(=O)(=O)OC[C@@H]1C[C@@H](n2ccc3c(N[C@H]4CCc5ccccc54)ncnc32)C[C@@H]1O` the IC50 was 454 nM and 462 nM and 512 nM (CHP-212 parental; cell viability, SRB).
With `CC#CC(=O)N1CCC[C@H]1c1nc(-c2ccc(C(=O)Nc3ccccn3)cc2)c2c(N)nccn12` the IC50 was 6370 nM (washed human platelets, healthy donors; ATP secretion, inhibitor, luminescence; added: CRP 10 µg/mL).
`C[C@@H](Oc1cc(-c2cnn(C3CCNCC3)c2)cnc1N)c1c(Cl)ccc(F)c1Cl` gave an IC50 of 820 ± 120 nM (Rh36 (embryonal rhabdomyosarcoma); cell growth; 3 days).
With `C=CC(=O)N1CCC[C@@H](n2nc(-c3ccc(Oc4ccccc4)cc3)c3c(N)ncnc32)C1` the IC50 was 1880 nM (human platelets, healthy donors; calcium mobilisation, inhibitor, Fura-2 fluorescence; added: CRP 10 µg/mL).
`CC(=O)OC[C@H]1O[C@@H]([S-])[C@H](OC(C)=O)[C@@H](OC(C)=O)[C@@H]1OC(C)=O.CCP(CC)CC.[Au+]` gave an IC50 of 580 nM (NCI-H661 HMOX1-GFP low; cell viability, MTT; 48 h).
For `CC[C@H]1CN2CCc3cc(OC)c(OC)cc3[C@@H]2C[C@@H]1C[C@H]1NCCc2cc(OC)c(OC)cc21`, the EC90 was 3050 nM (Toxoplasma gondii; parasite growth; HFF, bradyzoite, glutamine-induced).
`COC(=O)N[C@@H](C)CNc1nccc(-c2cn(C(C)C)nc2-c2cc(Cl)cc(NS(C)(=O)=O)c2F)n1` gave an IC50 of 9770 nM (primary keratinocytes; ERK phosphorylation, Western blot; 1 h).

Repeated from above:
The IC50 of `CC1(C)CCC(CN2CCN(c3ccc(C(=O)NS(=O)(=O)c4ccc(NCC5CCOCC5)c([N+](=O)[O-])c4)c(Oc4cnc5[nH]ccc5c4)c3)CC2)=C(c2ccc(Cl)cc2)C1` is reported as 132 nM (CD56+ NK cells from healthy blood; cell viability, high-throughput flow cytometry).
For `N#Cc1ccc(C[C@@H](Nc2ncc(-c3ccc(F)cc3)o2)C(=O)N2CCc3ccccc32)cc1`, the IC50 was > 50000 nM (human neutrophils; calcium mobilization, desensitization; added: standard agonist).
`COc1cc(-c2oc3cc(O)cc(O)c3c(=O)c2O)ccc1O` gave an IC50 of > 200000 nM (SV-HUC-1; cell growth, CellTiter-Glo; 72 h).
For `Cn1cc(-c2ccc(-c3cncc(Cl)c3N3CCC4(CCNC4=O)CC3)cc2)cn1`, “log2 fold change” read 1.1 (COLO 205; gene expression, microarray, refers to: PLD1 mRNA; concentration not given, 6 h; relative to: untreated cells).
`N#Cc1ccc(C[C@@H](Nc2nnc(-c3ccc(F)cc3)s2)C(=O)N2CCc3ccccc32)cc1` has an IC50 of > 50000 nM (human neutrophils; calcium mobilization, desensitization; added: standard agonist).
With `C[C@H]1Oc2cc(cnc2N)-c2c(nn(C)c2C#N)CN(C)C(=O)c2ccc(F)cc21` the IC50 was < 1.02 nM (NCI-H2228 (EML4-ALK variant 3); cell viability).
For `CCCS(=O)(=O)Nc1ccc(F)c(C(=O)c2c[nH]c3ncc(-c4ccc(Cl)cc4)cc23)c1F`, the IC50 was > 30000 nM (primary keratinocytes; ERK phosphorylation, Western blot; 1 h).
